Results collected from several papers.
Numbered parts are unrelated; each lists some results of a single study.
UniProt P16234, sequence (whole entry, looked up): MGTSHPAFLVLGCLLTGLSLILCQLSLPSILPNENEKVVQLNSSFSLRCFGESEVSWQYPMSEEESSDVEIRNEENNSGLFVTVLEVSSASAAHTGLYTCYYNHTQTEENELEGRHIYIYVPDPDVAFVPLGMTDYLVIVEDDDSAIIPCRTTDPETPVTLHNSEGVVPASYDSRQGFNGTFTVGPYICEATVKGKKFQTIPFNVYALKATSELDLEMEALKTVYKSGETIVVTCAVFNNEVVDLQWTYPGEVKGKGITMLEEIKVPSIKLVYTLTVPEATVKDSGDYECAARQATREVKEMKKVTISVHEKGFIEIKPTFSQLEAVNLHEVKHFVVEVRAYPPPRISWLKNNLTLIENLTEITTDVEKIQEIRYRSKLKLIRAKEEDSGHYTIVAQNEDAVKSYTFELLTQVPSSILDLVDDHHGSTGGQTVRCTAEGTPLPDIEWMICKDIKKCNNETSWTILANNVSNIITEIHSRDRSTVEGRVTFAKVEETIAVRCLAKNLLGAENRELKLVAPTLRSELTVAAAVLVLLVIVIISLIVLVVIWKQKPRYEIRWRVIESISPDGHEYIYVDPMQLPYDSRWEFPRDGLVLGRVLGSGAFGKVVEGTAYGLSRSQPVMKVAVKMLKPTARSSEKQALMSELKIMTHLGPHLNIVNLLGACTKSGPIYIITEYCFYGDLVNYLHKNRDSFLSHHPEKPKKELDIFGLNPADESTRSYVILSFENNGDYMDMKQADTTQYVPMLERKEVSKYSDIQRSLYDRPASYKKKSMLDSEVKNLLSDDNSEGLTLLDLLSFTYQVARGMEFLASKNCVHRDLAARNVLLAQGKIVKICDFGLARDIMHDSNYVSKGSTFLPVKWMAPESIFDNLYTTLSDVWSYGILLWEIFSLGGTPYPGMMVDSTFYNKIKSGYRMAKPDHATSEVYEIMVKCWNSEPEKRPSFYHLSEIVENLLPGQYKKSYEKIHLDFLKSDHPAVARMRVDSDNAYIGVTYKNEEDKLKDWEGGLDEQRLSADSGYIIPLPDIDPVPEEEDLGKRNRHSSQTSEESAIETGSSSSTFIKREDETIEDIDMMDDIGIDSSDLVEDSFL
UniProt P31751, sequence (whole entry, looked up): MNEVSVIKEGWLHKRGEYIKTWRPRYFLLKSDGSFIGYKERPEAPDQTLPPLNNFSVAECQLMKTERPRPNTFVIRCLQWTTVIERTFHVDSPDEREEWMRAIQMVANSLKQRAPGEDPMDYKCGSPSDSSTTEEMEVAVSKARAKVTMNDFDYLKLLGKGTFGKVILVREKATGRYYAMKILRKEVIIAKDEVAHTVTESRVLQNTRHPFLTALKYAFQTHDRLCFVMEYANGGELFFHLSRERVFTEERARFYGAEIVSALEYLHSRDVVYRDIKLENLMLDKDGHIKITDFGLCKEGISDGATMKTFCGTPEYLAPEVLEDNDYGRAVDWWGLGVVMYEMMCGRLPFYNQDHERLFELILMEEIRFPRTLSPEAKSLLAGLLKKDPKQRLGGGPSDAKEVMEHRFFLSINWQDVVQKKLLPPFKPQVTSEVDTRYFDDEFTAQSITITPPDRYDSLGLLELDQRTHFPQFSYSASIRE
UniProt P08581, sequence (whole entry, looked up): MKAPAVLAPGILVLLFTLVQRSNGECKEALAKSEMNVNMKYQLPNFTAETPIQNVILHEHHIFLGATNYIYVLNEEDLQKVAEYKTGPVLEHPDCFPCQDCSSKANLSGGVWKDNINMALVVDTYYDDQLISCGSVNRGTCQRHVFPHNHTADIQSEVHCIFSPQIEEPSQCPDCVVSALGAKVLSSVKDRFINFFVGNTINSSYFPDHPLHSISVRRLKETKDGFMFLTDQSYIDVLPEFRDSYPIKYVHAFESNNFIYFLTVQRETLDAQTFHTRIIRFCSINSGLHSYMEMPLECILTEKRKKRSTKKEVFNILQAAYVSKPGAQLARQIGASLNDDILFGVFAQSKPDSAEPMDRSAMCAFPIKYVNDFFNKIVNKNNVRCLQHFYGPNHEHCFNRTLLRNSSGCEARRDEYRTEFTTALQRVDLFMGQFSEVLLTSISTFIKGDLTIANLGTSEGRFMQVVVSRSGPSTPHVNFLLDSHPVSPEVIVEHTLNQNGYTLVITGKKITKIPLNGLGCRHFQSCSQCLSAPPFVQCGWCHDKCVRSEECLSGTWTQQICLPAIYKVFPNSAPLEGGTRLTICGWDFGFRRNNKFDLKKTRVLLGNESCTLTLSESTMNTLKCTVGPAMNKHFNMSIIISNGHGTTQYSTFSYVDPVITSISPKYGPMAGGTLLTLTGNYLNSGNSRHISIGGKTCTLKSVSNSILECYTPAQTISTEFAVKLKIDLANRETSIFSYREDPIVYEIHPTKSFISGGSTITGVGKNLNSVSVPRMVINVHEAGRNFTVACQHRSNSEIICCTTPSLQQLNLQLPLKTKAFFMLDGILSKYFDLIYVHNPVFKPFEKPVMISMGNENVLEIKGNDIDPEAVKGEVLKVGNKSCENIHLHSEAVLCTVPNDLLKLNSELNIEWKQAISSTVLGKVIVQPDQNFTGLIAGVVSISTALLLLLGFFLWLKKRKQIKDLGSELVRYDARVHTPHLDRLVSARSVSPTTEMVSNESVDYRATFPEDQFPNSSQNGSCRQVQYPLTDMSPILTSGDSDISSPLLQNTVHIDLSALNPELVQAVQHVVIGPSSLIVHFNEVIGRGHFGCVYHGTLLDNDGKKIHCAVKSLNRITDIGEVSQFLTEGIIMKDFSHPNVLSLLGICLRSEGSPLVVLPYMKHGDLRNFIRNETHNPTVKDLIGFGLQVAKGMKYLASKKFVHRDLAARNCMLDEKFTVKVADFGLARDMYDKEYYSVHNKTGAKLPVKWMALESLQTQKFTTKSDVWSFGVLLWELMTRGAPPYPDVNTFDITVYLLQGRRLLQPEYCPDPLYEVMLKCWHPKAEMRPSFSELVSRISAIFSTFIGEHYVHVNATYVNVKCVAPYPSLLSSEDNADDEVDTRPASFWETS
UniProt Q86YV6, sequence (whole entry, looked up): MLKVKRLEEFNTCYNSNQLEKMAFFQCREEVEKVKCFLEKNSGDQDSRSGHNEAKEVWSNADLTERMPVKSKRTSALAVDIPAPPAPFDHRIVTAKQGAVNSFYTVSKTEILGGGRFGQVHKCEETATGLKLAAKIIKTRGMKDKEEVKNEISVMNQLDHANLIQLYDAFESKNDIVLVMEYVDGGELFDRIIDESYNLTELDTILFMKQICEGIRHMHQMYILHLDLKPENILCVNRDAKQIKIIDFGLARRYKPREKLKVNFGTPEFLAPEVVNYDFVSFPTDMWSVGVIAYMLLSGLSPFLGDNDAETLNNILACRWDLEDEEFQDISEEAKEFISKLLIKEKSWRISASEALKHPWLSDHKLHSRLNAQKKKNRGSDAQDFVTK
UniProt P50750, sequence (whole entry, looked up): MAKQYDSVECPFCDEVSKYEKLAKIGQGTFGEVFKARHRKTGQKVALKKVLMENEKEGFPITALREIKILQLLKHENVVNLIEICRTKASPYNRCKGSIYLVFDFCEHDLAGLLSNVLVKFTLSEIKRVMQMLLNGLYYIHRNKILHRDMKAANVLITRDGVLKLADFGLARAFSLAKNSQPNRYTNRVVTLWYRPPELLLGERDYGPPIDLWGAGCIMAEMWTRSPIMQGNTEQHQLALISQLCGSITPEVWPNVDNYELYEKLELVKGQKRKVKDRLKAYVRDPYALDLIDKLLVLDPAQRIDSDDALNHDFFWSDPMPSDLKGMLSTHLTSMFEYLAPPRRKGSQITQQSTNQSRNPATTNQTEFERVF
UniProt O75914, sequence (whole entry, looked up): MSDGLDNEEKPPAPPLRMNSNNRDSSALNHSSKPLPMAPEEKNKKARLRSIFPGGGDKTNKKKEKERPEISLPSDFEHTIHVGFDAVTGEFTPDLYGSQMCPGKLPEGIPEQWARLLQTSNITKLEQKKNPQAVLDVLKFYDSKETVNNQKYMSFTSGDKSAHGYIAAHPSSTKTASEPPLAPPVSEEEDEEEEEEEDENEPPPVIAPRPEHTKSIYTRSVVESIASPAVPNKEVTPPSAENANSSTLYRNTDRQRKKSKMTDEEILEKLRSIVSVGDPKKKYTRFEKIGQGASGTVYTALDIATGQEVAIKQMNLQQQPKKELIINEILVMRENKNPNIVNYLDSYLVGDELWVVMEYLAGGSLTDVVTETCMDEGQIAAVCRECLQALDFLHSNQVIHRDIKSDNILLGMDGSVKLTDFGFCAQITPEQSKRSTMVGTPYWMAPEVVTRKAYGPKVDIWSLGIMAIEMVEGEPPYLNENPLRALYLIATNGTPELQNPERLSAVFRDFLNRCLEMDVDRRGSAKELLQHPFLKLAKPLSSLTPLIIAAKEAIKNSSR
UniProt O75676, sequence (whole entry, looked up): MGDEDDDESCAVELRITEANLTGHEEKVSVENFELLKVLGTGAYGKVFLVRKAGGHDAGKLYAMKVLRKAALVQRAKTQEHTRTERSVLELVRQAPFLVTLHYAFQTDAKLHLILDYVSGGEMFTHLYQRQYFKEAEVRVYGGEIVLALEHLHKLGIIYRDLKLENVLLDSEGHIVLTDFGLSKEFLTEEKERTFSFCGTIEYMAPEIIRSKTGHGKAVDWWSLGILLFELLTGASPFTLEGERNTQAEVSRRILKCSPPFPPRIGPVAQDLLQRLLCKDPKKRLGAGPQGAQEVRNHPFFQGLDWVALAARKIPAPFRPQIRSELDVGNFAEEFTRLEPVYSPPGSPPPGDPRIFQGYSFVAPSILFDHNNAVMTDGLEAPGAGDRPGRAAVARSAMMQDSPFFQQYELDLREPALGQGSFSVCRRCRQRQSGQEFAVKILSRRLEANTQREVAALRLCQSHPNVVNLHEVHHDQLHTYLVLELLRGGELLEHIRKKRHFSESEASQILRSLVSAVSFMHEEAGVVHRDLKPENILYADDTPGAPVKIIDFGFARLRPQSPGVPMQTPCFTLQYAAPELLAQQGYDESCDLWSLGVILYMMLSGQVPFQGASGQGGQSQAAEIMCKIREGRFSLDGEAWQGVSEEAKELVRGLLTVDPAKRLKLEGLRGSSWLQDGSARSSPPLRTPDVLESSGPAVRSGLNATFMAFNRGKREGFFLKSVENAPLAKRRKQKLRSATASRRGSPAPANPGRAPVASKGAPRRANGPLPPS

Sample 1 — read-out: kinase–CDC37 interaction
Compound: CCCS(=O)(=O)Nc1ccc(F)c(C(=O)c2c[nH]c3ncc(-c4ccc(Cl)cc4)cc23)c1F
target	action	cell line	setting	EC50
ARAF (Homo sapiens, UniProt P10398)	inhibitor	human cells	kinome plate 1@A11	290 nM
PDGFRA (Homo sapiens, UniProt P16234)	inhibitor	human cells	FIP1L1-PDGFRA fusion kinase	5380 nM
MYLK4 (Homo sapiens, UniProt Q86YV6)				1070 nM

Sample 2 — Compound: O=c1cc(N2CCOCC2)oc2c(-c3ccccc3)cccc12; read-out: enzyme activity; action: inhibitor; tested at: 0.5 µM; relative to: control
target	remaining activity [%]
PAK3 (Homo sapiens, UniProt O75914)	104
RPS6KA4 (Homo sapiens, UniProt O75676)	111
AKT2 (Homo sapiens, UniProt P31751)	94
MARK4 (Homo sapiens, UniProt Q96L34)	91.4
MARK2 (Homo sapiens, UniProt Q7KZI7)	79.2
Cyclin-dependent kinase 9, with cyclin K (CDK9, Homo sapiens, UniProt P50750)	95.9
MAPK11 (Homo sapiens, UniProt Q15759)	96.2
MET (Homo sapiens, UniProt P08581)	127
MAP2K1 (Homo sapiens, UniProt Q02750)	88.8
MINK1 (Homo sapiens, UniProt Q8N4C8)	94.6
CLK4 (Homo sapiens, UniProt Q9HAZ1)	89.1
NEK3 (Homo sapiens, UniProt P51956)	102
PRKG2 (Homo sapiens, UniProt Q13237)	105
TXK (Homo sapiens, UniProt P42681)	93.6

Sample 3 — host: mouse; medium: microsomes or S9; tested at: 2 µM; time: 0.5 h
SMILES	remaining compound [%]
COc1cc(=O)[nH]cc1C(=O)N1CCCCC1c1cc[nH]n1 (stereo not shown)	97.4
COc1cc(=O)n2c(c1C(=O)N1CCN(c3ccc(C)cc3)CC1)CCCC2	53.6
CC(C)CCN(C)C1CCN(S(=O)(=O)c2ccc(C3CCCCC3)cc2)CC1	71.7
CCN(CC)c1cc(CCC(=O)N(C)CCCc2c(C)nn(C)c2C)ccn1	9.29
CCOC(=O)C1CCN(Cc2nc(N)nc(Nc3ccc(C)cc3)n2)c2ccccc21 (stereo not shown)	0.705
CCOc1ccccc1-n1nnc(C(=O)O)c1-c1ccncc1	> 99
COc1cc(NS(=O)(=O)c2ccc(-c3nnc(C4CCC4)o3)s2)cc(OC)c1	1.41
Clc1ccc(-c2c(-n3cncn3)nc3ccc(Cl)cc3c2Cl)c(Cl)c1	57.5

Sample 4 — read-out: cell-free assay; technique: competition with immobilised ligand; tested at: 1 µM
Structure (SMILES): CC(=O)Nc1c(C(C)=O)c(=O)n(C)c2nc(-c3ccc(Cl)cc3Cl)c(-c3ccc(Cl)cc3)cc12
target	remaining binding
CAMK1D (Homo sapiens, UniProt Q8IU85)	100%
ULK2 (Homo sapiens, UniProt Q8IYT8)	100%
PDGFRA (Homo sapiens, UniProt P16234)	100%
MYLK3 (Homo sapiens, UniProt Q32MK0)	100%
ACVRL1 (Homo sapiens, UniProt P37023)	100%
MAP3K20 (Homo sapiens, UniProt Q9NYL2)	100%

For quick reference, copied from above (sample 2):
target	remaining activity [%]
MARK4 (Homo sapiens, UniProt Q96L34)	91.4
MARK2 (Homo sapiens, UniProt Q7KZI7)	79.2
Cyclin-dependent kinase 9, with cyclin K (CDK9, Homo sapiens, UniProt P50750)	95.9
MAPK11 (Homo sapiens, UniProt Q15759)	96.2
